Assay results of several laboratories.
Numbered parts are unrelated; each lists some results of a single study.
Chain of UniProt Q9C0C9 (whole entry, looked up): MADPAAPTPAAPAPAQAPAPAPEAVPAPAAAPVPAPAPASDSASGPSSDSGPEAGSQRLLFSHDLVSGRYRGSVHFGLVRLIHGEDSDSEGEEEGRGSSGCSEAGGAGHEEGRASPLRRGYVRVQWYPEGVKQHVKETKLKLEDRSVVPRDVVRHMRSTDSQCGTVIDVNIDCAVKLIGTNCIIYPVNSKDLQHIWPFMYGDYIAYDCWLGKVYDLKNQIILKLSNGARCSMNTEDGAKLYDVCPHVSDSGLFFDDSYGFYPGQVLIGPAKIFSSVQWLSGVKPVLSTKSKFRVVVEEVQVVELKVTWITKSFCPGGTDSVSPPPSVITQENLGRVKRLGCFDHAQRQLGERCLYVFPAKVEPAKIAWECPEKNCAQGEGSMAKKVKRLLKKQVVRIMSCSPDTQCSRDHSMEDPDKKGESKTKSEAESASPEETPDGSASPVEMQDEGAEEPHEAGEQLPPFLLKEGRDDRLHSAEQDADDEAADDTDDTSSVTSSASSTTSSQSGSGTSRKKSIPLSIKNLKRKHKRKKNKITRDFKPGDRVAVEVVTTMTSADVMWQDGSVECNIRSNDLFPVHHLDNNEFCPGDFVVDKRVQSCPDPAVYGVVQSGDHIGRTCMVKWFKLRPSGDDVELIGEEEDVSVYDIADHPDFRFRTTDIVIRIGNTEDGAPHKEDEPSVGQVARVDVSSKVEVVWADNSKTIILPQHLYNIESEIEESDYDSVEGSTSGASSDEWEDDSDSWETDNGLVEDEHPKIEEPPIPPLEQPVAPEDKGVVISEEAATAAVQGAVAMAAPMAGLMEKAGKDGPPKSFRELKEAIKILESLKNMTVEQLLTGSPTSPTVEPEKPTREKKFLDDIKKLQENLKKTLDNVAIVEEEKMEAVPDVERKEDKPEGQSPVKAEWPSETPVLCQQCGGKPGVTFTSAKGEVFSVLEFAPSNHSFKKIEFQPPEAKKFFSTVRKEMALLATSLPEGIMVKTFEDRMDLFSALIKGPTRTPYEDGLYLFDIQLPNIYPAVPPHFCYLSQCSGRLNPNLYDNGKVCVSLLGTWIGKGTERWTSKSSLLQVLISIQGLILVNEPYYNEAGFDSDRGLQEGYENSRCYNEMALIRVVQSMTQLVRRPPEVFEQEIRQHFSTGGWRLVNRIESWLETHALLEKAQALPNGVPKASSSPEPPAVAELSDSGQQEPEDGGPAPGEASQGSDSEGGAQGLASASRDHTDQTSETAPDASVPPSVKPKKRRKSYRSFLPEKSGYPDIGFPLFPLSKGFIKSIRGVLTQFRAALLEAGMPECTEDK
Chain of UniProt Q712K3 (whole entry, looked up): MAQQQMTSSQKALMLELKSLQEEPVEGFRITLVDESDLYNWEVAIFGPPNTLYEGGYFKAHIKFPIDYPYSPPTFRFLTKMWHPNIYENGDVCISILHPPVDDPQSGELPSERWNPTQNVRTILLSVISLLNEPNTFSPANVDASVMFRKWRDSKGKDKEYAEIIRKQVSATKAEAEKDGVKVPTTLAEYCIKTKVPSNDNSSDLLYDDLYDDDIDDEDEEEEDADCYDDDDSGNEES
Chain of UniProt Q9H832 (whole entry, looked up): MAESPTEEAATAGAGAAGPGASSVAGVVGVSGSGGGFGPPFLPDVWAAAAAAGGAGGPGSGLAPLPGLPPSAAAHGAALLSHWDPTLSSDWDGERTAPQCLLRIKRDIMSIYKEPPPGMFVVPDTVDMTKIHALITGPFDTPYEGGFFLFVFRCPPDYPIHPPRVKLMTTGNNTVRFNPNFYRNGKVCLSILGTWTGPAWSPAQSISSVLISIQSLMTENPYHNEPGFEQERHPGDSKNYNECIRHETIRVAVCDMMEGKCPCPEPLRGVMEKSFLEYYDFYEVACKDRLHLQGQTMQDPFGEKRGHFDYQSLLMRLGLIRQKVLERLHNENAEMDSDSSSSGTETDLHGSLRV
Chain of UniProt Q9NPD8 (whole entry, looked up): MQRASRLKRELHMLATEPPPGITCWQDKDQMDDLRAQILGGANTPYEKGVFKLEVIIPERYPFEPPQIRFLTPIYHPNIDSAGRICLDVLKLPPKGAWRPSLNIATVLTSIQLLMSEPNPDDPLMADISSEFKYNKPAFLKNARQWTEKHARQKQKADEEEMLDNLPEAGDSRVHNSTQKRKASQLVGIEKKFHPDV
Chain of UniProt P68036 (whole entry, looked up): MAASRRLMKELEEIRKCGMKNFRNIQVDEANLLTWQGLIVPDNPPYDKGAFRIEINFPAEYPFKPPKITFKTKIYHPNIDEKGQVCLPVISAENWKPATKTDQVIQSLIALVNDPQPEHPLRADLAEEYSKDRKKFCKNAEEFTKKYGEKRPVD
Chain of UniProt Q7Z7E8 (whole entry, looked up): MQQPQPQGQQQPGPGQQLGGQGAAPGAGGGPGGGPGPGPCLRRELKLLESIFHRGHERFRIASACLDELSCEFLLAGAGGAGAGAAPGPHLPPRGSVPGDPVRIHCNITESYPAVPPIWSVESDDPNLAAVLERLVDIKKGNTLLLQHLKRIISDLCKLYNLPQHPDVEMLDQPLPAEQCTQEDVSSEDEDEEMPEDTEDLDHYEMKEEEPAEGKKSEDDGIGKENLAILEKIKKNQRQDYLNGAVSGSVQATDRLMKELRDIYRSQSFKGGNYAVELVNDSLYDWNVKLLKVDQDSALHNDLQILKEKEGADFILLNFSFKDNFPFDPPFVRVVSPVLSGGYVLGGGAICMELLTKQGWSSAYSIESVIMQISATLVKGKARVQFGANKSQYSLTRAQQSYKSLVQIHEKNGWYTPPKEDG
Chain of UniProt P62253 (whole entry, looked up): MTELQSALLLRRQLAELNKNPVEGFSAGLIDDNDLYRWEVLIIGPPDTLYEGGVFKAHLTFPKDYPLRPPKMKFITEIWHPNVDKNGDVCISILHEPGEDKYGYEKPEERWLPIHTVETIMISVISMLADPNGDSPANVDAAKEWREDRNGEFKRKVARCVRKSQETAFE
Chain of UniProt Q969T4 (whole entry, looked up): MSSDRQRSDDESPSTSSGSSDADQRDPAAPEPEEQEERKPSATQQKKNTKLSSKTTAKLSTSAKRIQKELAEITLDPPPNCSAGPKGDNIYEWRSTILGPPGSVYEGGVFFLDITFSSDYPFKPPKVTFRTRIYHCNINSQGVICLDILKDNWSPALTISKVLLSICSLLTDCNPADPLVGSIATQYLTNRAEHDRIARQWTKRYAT

Block 1
Molecule: B1 (RUFY1 RING domain)
Method: yeast two-hybrid
Matrix: yeast
Setting: mostly zero background
Reference: not given
Direction: higher = stronger interaction
B1: RUFY1 RING domain (UniProt Q96T51); chain QALKGHAWLKDDEATHCRQCEKEFSISRRKHHCRNCGHIFCNTCSSNELALPSYPKPVRVCDSCHTLLLQRCSSTAS
target	lacZ reporter activity
UBE2R2 UBC core domain (UniProt Q712K3)	0
UBE2Z UBC core domain (UniProt Q9H832)	0
UBE2O UBC core domain (UniProt Q9C0C9)	0
UBE2G1 UBC core domain (UniProt P62253)	0
UBE2E3 UBC core domain (UniProt Q969T4)	0
UBE2Q1 UBC core domain (UniProt Q7Z7E8)	0
UBE2L3 UBC core domain (UniProt P68036)	0
UBE2T UBC core domain (UniProt Q9NPD8)	0

Block 2
Target: TAR DNA-binding protein 43, full length, His tag (TARDBP, Homo sapiens, UniProt Q13148, residues 1-414)
Method: RNA Bind-n-Seq
Form: RNA
Matrix: in vitro
Tested at: 20 nM
Setting: 6-mer, flanks averaged, single round
With: 150 mM KCl
Reference: input library
Direction: higher = stronger binding
Sequence	6-mer enrichment (R)
GAUCUG	0.806
ACGAGA	0.855
UCACCG	0.668
CCAAUG	0.734
CUUAGA	0.61
GCUAAG	0.967
CUAAUC	0.553
CAAGGC	0.87

Block 3
Target: Fragile X messenger ribonucleoprotein 1, C-terminal low-complexity region (Fmr1, Mus musculus, UniProt P35922)
Method: RNA Bind-n-Seq
Form: RNA
Matrix: in vitro
Tested at: 200 nM
Setting: whole 134-nt RNA, ends assumed
With: 150 mM KCl
Reference: input library
Direction: higher = stronger binding
Sequence	log2 enrichment
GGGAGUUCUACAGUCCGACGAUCACCAUGCAGGUGGGCAUCUUUGGGAAGUGGGGCAAGGGGGGGAUAGGGAGGGGGGUAACACUUUGGGAAUAGGUGGUCCCAGGUCGUUUCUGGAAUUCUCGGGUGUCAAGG	0.418
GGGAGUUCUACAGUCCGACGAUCCAAGUCCUGUGCUACACAUCGUAUGUACCGAAUCGGGAAAAAAAGGGAGGGUGGGAAAGUAUUAUGUUACGCCGUUCGGAUCUGCACUUCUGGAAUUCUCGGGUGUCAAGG	0.866
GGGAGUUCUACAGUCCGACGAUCUCCUGUGCUACACAUCGUAUGUACCGAAUCGGUUUUUUGGGUUUUUUGGGUUUUUUGGGAAAGUAUUAUGUUACGCCGUUCGGAUCUGCAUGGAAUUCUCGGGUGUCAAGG	-0.0328
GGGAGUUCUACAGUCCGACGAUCACCAUGCAGGUGGGCAUCUUUGGGAAGUGGGGCAAGGGGGGGAUAGGGAGGGGGGUAACACAUUGGGAACAGGUGGUCCCAGGUCGUUUCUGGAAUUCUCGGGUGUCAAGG	0.6
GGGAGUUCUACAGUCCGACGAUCUAACUUUAGAGGAGGAUCUCAUGGAUAUGGCAGUGGACGUGGAUUUGGGGAUGGCUAUAAUGGGUAUGGAGGAGGACCUGGAGGUGGCAAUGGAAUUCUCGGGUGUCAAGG	0.37
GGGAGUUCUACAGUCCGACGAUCUGGGAGGUGGAUUUUGUUUAUUUUUUUAGCUCAUUUCCAGGGGUGGGAAUUUUUUUUUAAUAUGUGUCAUGAAUAAAGUUGUUUUGGAAAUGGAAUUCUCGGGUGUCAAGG	0.365
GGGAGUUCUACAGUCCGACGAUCUUCUGCACCUCUGCUACCUAAAGAAGACCCAAUCUUCACAUAUUUAUCUAAACGGUUAGGAAGGAGUAUAGAUGACAUAGGUCACCUCAUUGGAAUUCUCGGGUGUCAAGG	-0.049
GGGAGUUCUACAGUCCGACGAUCAGUCCUGUGCUACACAUCGUAUGUACCGAAUCGGGGAAAGGGGUUUUUGGGGUGGGGAAAGUAUUAUGUUACGCCGUUCGGAUCUGCACUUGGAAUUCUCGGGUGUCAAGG	0.841

Mixed results
SMILES	species	matrix	tested at	time	endpoint	result
COC(=O)C1(C(=O)OC)C[C@@H](c2ccccc2)c2ccc(N(C)C)cc2[C@@H]1CC(=O)C(C)(C)C	human	microsomes or S9	2 µM	0.5 h	remaining compound	1.22%
